Measurements gathered from unrelated publications.
Every numbered part comes from another study and shows a few of its results, in no order. Changes are numbered by the printed parent chain.

Study 1
Target: BATF, bZIP domain (human)
Technique: DHFR protein complementation
Medium: yeast
Setting: single substitutions, most at no-binding floor
Relative to: wild-type JUN-FOS pair
Direction: higher = stronger binding
Endpoint: binding fitness
Starting sequence: JUN, bZIP domain (human); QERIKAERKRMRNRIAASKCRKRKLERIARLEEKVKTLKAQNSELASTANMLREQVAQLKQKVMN; partner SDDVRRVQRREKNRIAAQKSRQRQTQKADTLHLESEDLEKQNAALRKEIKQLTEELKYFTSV
R30L: 0.0909 natural log
E33A: -0.0459 natural log
A46H: -0.0369 natural log
E54G: 0.0232 natural log
K34C: -0.156 natural log
K39I: -0.311 natural log
K39C: -0.433 natural log
E33H: -0.168 natural log
S47T: -0.012 natural log
E33F: -0.127 natural log
E44V: -0.0737 natural log
V35Q: -0.347 natural log
E44A: -0.0135 natural log
A49Q: -0.514 natural log

Study 2
Target: RING finger protein unkempt homolog, zinc fingers 1-6, GST-SBP tag (UNK, Homo sapiens, UniProt Q9C0B0, residues 30-357)
Chain of UniProt Q9C0B0 (30-357, looked up): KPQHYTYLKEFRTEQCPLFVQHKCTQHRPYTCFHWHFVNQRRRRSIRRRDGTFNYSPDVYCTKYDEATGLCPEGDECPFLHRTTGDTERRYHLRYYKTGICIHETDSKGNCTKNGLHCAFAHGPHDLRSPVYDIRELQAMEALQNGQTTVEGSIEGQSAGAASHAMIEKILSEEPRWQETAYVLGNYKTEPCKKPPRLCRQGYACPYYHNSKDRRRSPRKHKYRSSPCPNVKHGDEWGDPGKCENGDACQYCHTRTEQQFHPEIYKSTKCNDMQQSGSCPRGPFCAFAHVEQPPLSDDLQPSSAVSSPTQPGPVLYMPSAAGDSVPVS
Technique: RNA Bind-n-Seq
Form: RNA
Medium: in vitro
Tested at: not given
Setting: RNA with constant flanks, human-mouse chimeric sites, ends assumed
Relative to: input RNA pool
Direction: higher = stronger binding
Endpoint: bound/input enrichment
Shared flanks, not repeated: GGGAGUUCUACAGUCCGACGAUC … CAACAGAGGAUUGAGCAUCA
AAAGAGUGGAUAGAGUGUGCACACGGGAUCGGUGGGACCCGGGCGAAAAAGGAGUGCAAGAUAGAGUAUGAUGAUUUCGAAGAGUGCUUGCUUCGGUAGAAAACGAUGAGGCGAAUGCAU: 1.04 ratio
CACACACUCUUCUGCGGGACCCUCAUCCUGCAGGCCCGAGCCUACGUGGGACCGCACGUCCUGGCAGUGGUGACCCGCACAGGGUUCUGCACGGCAAAAGGGGGCCUGGUGAGCUCCAUC: 0.0894 ratio
UACUCAACUUUCUUGCCACAUUUUGAAUUCCAAGAUGUUAUCCCUCCAGAUGACUUCCUAACGAGUGAUGAAGAGCAAGAUUUGGUUUUAUUUGGAACUAUGAGAGGACAAGUUGUUGGA: 0.147 ratio
UAAGUCCUGUGCCAGCACUUCGCUCAUAAAGUUUUAAAUUCUGGACCAAUAGUGUUUGUUUCCUGAUUUUUGUAUUCAAUACUUUGCCUAGUAUGUAACUCAUGCUUACUGAUAAUAAAA: 0.469 ratio
AAUUUCCUGUCAUACUUUUUAGACAUUCACAUCAGACUUACAGAGCACCUGGCCACAUUCUAGGUUUGUGUUAUUUCUCAGCUAUGGGGGUAUGAUUAGAGUGAAAAUGCUUAACUAAUG: 1.55 ratio
GUGACAGGUGUUAAGAUUUCCCCUCAGCAAAGAAGUGUAGCAGUGACCAUAAUUCCAUCUGUGGUGAGUGCCAGUCAGAUUGUGGAGCUGGUCCCAGACCUCAGUUUAGACAUGGGAACU: 0.378 ratio
UUUCUAUUGCAGCAAACGAUGCUAAGAAUUAAGGAUCCUAAGAAGUCCCUGGAUUUUUAUACGAGGGUUCUUGGAAUGACCCUCCUGCAGAAGCUUGACUUCCCUGCUAUGAAGUUCUCG: 0.0972 ratio
AUAAAAGCUAUGUUGAGUGGUCCAGGUCAGUUUGCUGAGAAUGAAACCAACGAGGUCAAUUUUAGAGAGAUCCCCUCACAUGUGCUAUCAAAAGUGUGCAUGUAUUUUACGUACAAGGUC: 0.508 ratio

Study 3
Target: RNA binding protein fox-1 homolog 2, RRM domain, GST-SBP tag (RBFOX2, Homo sapiens, UniProt O43251-10, residues 100-194)
Technique: RNA Bind-n-Seq
Form: RNA
Medium: in vitro
Tested at: 365 nM
Setting: natural RNA segment, single round, ends assumed
Relative to: no-protein control
Direction: higher = stronger binding
Endpoint: RBNS enrichment (R)
Shared flanks, not repeated: GGGAGUUCUACAGUCCGACGAUC … UGGAAUUCUCGGGUGCCAA
Construct (chain): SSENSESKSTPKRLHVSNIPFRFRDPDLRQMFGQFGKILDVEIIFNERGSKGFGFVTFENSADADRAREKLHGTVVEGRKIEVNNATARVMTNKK
CCAAGCUGCGUUAUAUUCUGUACUGUGUACAAUAAAGAAGUUUGCUUUUCGUUUACCAAGCACCCGACCUGCCUCUUUCUUGCCCUCAUUGGUCUAAUUUUAAAGCAGGC: 0.432
UGGCACACCACUCCUUUCUGAUGCUUGUCCUCCUGCUUUCUGAGACUCUGCUGCCUCCAUGUCCUCUCUGGGACCUGACUCUCCACAGGGAGGGAGACUCCUUGUCCCAG: 0.674
ACCCAAGACUUAUUCAAAGCUGUGGCUAAGAGCAGAGACGCUGUUCACACAACGCCUCACCACCACCAGCCUCCAGGCAAAACCAGAUAGGAUGCACCGUUCUAGCACCU: 0.27
AAACCUAAGUUAAACUUUUUCCCAAACAAGGAGCAUCCAAAGACACAGUGACUUGAGCUAUAGAUAGUAAAAAUCAUACGAGAGUUGAACUGAGUCAGGUUUAGGAAGCA: 1.48
CGCAUUGGGUUUAAAACCAGCACCGAGGCCCAGUGGGGGAAUCACAGACAUCACCAAGUCUCGUCUUCUUUCCUUCCUGUGAGUUGAAACCAAACAGGCCUCUCGCUCAC: 0.333
GUGCCUUGGUUGACUAUUUUGGAAAUAGGCAUAUCAAGGUUCCUGAUUCAGCACUUUGCUCUUUUAAUAACAAAUCGUCCAAAGAUCUCAAAGUAAGGGUUUUUUUUUUU: 0.463
GAAAAAAAAAUCUCACAAGUUCUUUUGGAACUUGUUUCAAGCCAAAAACUCUCAAGAAAGCAAAUUGCACCUCAGCUGGAUUGAUUUCCAAAUGCUAGCAUGUACUGUAU: 22.2
CACACGUGGUCGGUCACAUUGCCCUGCCUUACCUCCCAGGGGCCAACCCCUCACUGGUCUUGCAUGAGCUAGAGGGUUGGGAAGCUGGGCUCAUUCCACGCAUUGCCUGC: 17.8

Study 4
Target: CCNE2, cyclin fold, Cln2 fusion (human)
Technique: yeast growth competition, sequencing
Medium: yeast
Setting: strong parent motif
Relative to: not given
Direction: higher = stronger binding
Endpoint: normalised enrichment score
Starting sequence: SCAPER docking peptide (human); SNARRSLNFGGST
R4Y: 0.277
T13A: 0.815
R5C: 0.11
N8T: 1.05
F9D: 0.646
F9A: 0.193
R5H: 0.195
R5Q: 0.187
S12D: 1.54
R5K: 0.0537
G11V: 1.68
N2Y: 0.905
S12L: 1.83
S6K: 4.33
S6R: 5.31
S6D: 0.247
G10E: 1.31
R5L: 0.0278
T13V: 1.72
S1R: 0.177
R5A: -0.0102
T13S: 1.19
S1G: 1.42
G11H: 0.721
S6M: 3.38

Study 5
Target: PABPC1L2, full length, GST fusion (mouse, UniProt A0ABA7IW68)
Technique: RNAcompete
Form: RNA
Medium: in vitro
Tested at: 20 nM
Setting: 7-mer, probes averaged, single round
Relative to: mean of 7-mers
Direction: higher = stronger binding
Endpoint: 7-mer Z-score
Construct (chain): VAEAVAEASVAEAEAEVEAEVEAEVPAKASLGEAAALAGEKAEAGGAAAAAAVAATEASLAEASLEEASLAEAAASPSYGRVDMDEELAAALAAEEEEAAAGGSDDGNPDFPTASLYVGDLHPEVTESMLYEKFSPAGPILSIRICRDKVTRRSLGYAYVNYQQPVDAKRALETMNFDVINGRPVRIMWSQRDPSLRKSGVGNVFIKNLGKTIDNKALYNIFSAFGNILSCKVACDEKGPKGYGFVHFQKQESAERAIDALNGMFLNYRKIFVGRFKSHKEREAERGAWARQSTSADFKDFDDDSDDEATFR
GGUCAUG: 0.0388
AGGAACU: -0.0464
ACAGUCC: -0.166
GGUAUGU: 0.0261
UUAUUAU: -0.211
AACGAUC: 0.00436
GUUUUUC: -0.322
GAACUGA: 0.102
GUAGACC: -0.124
CAGCGUA: -0.159
GUAGCGC: -0.161
AAGAUCA: 0.316
AACAGGA: 0.695
UAUAGAA: 0.32
CCAAAGU: -0.00289
CUAGAGC: 0.0243
GCCGGUU: -0.273

Single results of other studies
PhoQ, residues 284 288 289 292 302 303 SSLVEF
fold induction (PhoP, residues 12 14 15 18 19 IQFRS (Escherichia coli, UniProt P23836); Sort-seq, item: YFP reporter; E. coli; PhoQ-PhoP variant library, with: 10 µM Mg2+; relative to: high Mg2+ state, higher = stronger signaling): 1.44

Repeated from above (study 3):
CACACGUGGUCGGUCACAUUGCCCUGCCUUACCUCCCAGGGGCCAACCCCUCACUGGUCUUGCAUGAGCUAGAGGGUUGGGAAGCUGGGCUCAUUCCACGCAUUGCCUGC: 17.8
CGCAUUGGGUUUAAAACCAGCACCGAGGCCCAGUGGGGGAAUCACAGACAUCACCAAGUCUCGUCUUCUUUCCUUCCUGUGAGUUGAAACCAAACAGGCCUCUCGCUCAC: 0.333
CCAAGCUGCGUUAUAUUCUGUACUGUGUACAAUAAAGAAGUUUGCUUUUCGUUUACCAAGCACCCGACCUGCCUCUUUCUUGCCCUCAUUGGUCUAAUUUUAAAGCAGGC: 0.432
AAACCUAAGUUAAACUUUUUCCCAAACAAGGAGCAUCCAAAGACACAGUGACUUGAGCUAUAGAUAGUAAAAAUCAUACGAGAGUUGAACUGAGUCAGGUUUAGGAAGCA: 1.48
UGGCACACCACUCCUUUCUGAUGCUUGUCCUCCUGCUUUCUGAGACUCUGCUGCCUCCAUGUCCUCUCUGGGACCUGACUCUCCACAGGGAGGGAGACUCCUUGUCCCAG: 0.674
ACCCAAGACUUAUUCAAAGCUGUGGCUAAGAGCAGAGACGCUGUUCACACAACGCCUCACCACCACCAGCCUCCAGGCAAAACCAGAUAGGAUGCACCGUUCUAGCACCU: 0.27
GAAAAAAAAAUCUCACAAGUUCUUUUGGAACUUGUUUCAAGCCAAAAACUCUCAAGAAAGCAAAUUGCACCUCAGCUGGAUUGAUUUCCAAAUGCUAGCAUGUACUGUAU: 22.2
GUGCCUUGGUUGACUAUUUUGGAAAUAGGCAUAUCAAGGUUCCUGAUUCAGCACUUUGCUCUUUUAAUAACAAAUCGUCCAAAGAUCUCAAAGUAAGGGUUUUUUUUUUU: 0.463
